Measurements from different studies.
Numbered parts are unrelated; each lists some results of a single study. Substitutions count along the parent as printed.
UniProt Q38829, sequence (whole entry, looked up): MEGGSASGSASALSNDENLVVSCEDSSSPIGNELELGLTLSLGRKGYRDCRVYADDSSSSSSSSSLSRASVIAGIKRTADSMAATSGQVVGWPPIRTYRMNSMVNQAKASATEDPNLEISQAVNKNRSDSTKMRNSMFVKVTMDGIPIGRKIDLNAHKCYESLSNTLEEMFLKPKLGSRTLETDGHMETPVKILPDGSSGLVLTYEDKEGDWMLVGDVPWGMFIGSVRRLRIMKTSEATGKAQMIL
UniProt Q8H174, sequence (whole entry, looked up): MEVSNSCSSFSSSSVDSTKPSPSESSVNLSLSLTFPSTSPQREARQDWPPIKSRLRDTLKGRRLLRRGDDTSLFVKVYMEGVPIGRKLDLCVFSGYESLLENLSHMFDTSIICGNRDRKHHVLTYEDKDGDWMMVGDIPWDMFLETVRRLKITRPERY
UniProt Q9FX25, sequence (whole entry, looked up): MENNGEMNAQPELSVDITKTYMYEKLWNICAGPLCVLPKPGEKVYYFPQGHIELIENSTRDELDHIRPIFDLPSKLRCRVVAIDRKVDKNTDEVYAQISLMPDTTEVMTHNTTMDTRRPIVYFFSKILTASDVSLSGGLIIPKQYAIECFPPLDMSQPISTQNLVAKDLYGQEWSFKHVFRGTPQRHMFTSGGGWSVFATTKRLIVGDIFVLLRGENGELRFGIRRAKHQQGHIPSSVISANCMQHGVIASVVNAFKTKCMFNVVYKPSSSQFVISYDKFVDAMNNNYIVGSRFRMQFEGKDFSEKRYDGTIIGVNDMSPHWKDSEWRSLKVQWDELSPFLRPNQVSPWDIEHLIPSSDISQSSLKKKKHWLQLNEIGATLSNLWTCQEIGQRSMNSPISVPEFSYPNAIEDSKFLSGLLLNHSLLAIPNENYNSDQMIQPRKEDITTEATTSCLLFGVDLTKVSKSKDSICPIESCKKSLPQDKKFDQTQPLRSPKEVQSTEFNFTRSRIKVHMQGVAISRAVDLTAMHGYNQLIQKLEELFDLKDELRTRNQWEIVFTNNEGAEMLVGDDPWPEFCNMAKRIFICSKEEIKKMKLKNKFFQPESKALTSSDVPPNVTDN
UniProt Q9FKM7, sequence (whole entry, looked up): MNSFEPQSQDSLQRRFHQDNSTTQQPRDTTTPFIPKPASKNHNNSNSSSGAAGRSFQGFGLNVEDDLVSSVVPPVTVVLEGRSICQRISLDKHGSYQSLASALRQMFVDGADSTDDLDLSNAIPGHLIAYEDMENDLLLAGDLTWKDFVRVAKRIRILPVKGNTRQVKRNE
UniProt Q9C8N7, sequence (whole entry, looked up): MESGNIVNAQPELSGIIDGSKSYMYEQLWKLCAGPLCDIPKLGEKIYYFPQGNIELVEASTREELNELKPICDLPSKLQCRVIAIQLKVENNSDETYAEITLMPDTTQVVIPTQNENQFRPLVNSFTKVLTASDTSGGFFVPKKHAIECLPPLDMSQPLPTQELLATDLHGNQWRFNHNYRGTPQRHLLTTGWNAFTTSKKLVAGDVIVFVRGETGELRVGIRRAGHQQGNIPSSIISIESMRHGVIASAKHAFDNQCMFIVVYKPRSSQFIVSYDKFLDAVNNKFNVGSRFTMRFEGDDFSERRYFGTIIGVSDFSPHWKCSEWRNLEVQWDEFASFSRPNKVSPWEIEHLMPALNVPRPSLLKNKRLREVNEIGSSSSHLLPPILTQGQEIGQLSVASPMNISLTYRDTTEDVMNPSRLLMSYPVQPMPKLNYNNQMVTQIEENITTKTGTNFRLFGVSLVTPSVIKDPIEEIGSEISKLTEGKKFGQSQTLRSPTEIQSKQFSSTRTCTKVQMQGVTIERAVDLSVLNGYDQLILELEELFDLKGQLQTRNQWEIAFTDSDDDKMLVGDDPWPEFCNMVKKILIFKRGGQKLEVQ
UniProt Q38824, sequence (whole entry, looked up): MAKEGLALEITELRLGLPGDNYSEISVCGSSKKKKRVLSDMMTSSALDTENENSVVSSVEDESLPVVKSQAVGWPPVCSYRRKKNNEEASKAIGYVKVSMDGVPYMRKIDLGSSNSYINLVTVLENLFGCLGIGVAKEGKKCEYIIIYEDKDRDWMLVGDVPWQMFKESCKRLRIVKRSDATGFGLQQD

Series 1
Target: Hepatocyte nuclear factor 3-alpha (Foxa1, Mus musculus, UniProt P35582, residues 1-468, full length assumed)
UniProt P35582, sequence (whole entry, looked up): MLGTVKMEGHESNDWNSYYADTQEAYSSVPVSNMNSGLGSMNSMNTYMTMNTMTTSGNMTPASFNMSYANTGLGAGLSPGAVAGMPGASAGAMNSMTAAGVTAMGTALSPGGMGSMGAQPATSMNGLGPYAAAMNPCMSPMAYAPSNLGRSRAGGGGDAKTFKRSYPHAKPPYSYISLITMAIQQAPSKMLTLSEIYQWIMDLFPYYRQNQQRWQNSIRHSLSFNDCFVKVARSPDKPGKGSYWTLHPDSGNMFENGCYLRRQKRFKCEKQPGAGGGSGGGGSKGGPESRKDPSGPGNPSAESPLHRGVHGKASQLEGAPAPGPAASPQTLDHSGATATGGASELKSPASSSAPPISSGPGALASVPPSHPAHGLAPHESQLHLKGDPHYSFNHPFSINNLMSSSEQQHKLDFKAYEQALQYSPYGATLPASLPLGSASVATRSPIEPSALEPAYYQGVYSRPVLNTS
Technique: EMSA with sequencing
Molecule type: double-stranded DNA, one strand shown
Matrix: in vitro
Tested at: 10 and 20 nM
Notes: whole designed probe, mean of two concentrations, ends assumed
Reference: negative control set to 0
Reading: higher = stronger binding
Oligonucleotide	normalised bound fraction
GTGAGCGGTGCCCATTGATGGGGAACATCTTCCCCCTCTTCCTTGCCCCACCAGCTCACCTTCTGCGCTTGATTGCAGATAGGAAAATAAATAAAGCCGGCATTCGTTAACCCTCTTCTGGCGCAAACTGCTGTTTGCTCTGGATGAATCATGGTCCTTTGGCGACGCCAGGCTCCGGGAGAGCAAAGCACCGTGTCAGGGCCATGATCCGGGGTGGCCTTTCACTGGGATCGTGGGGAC	0.318 ratio
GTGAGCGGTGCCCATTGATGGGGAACTGCCCAGCCTCTTTTCTCCATACAAGTTATTTATTGAAGTATGAATGAATGATGATTGGTGTTTCAATGAGCACTCTTATGGGCCACTGCCTAAGTAAACATCAAGAAGTCTCTGTACCAGATGCAGACTTAGTGGAACAAGTCCAGTTTTGAATGCATGAAGAAAGTGGTTTGGGAGAAGTAAAGTTTAGGCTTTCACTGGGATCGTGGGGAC	0.454 ratio
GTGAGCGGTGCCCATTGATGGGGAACATCTTCCCCCTCTTCCTTGCCCCACCAGCTCACCTTCCCGGGTCAAAGTAAACAAGTGTTTACTTTGAAGCCGGCATTCGTTAACCCTCTTCACGCGCATACTGCCAGAGCAAACAGATGAATCATGGTCCTTTGGCGACGCCAGGCTCCGGGAGAGCAAAGCACCGTGTCAGGGCCATGATCCGGGGTGGCCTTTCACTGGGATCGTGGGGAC	0.463 ratio
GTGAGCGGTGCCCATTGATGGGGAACCGTATTTCTTCTTGTACAGAATATGTATCTGGGGGCATTGTAGAGTTTTGATATATATTTGATGAACTACTGAATAAATATTCTTATGTTTTCATGTTTACTTTTCTATACATATTTCCCCCTTCCTGAGATAACTCTTCGTTTCCCCCCAAAATACCTAAAACAATGAAGTTTTGAGCCGAGCTTTTTGAGCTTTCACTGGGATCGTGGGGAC	0.475 ratio
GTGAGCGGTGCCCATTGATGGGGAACCAATAAGTCAGTCACCGTGAAGCATTCTAAGCACTGAATAAGACAGAGCATCCATTCCACACCCTATTTCCATTCCCAGTTAATCTTCAAAGAGTCAACATGGCAAAAACATTCCAAGATAAAAATAGCAAGATCTTCTAGAAAAGATTTAAGTTTCAAGGCAAAAAGAAAAATCCTTTATGGTTACTGAGTATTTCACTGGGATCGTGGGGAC	0.0478 ratio

Series 2
Target: Histone acetyltransferase KAT6A, winged helix 2, GST fusion (KAT6A, Homo sapiens, UniProt Q92794, residues 85-181)
Technique: protein binding microarray
Molecule type: double-stranded DNA, one strand shown
Matrix: in vitro
Tested at: not given
Notes: 8-mer, flanks averaged, mean of 2 arrays, mostly near background
Reference: not given
Reading: higher = stronger binding
Construct (chain): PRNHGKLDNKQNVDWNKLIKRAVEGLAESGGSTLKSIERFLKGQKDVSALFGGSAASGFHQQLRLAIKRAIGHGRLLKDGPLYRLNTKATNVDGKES
Oligonucleotide	E-score
ATTCTCTG	-0.0567
CGACTTAA	-0.0483
AATTTCCT	0.0641
GCCGTCGA	0.109
CATTCGGA	0.144
AGAGAATA	0.0554
GTGGGTTA	0.0946
ACGCACGG	0.158
GTCAACGA	-0.033
AGTATAGG	-0.164
GATGTAAC	-0.0925
GACGTTCA	-0.249
CACTTCTG	-0.142
CCTGTGTA	-0.0135
GCAATTTA	0.0743
TTAGCAAA	0.0643
TATCGCCA	0.0448
AACCAATC	0.0261
GTCGGCTA	0.105
ACCACTAC	-0.229
GTTGCTGA	0.115
CTTAGTTC	0.0714
GTCGAGAA	0.0501
AGAGAGAG	-0.145
CGCCTTAG	-0.0342

Series 3
Target: ABI1, truncated, D143A, DHFR fusion (Arabidopsis thaliana)
Technique: DHFR PCA, deep sequencing
Matrix: yeast
Notes: methotrexate growth selection, single substitutions
Together with: (+)-ABA 17 µM
Reference: wild-type fitted maximum
Reading: higher = stronger binding
Starting sequence: PYL1, truncated, DHFR fusion (Arabidopsis thaliana); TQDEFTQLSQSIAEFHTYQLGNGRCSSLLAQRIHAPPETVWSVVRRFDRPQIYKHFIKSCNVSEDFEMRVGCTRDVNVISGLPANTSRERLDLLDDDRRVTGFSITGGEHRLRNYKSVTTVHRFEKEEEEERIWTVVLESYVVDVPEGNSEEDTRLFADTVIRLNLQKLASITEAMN; partner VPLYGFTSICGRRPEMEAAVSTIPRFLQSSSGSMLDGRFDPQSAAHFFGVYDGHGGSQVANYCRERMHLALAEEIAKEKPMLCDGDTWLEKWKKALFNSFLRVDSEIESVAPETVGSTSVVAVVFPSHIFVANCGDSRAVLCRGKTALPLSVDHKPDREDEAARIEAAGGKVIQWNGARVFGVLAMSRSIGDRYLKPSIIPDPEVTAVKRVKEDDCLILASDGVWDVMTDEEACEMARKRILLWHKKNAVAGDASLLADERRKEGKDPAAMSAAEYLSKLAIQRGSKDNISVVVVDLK
Variant	relative binding score [%]
V100C	68.4
E131C	85.6
Q7K	85.4
F157A	-5.51
E151S	82.6
A84D	2.98
V44A	39.3
V137T	6.58
R98L	72.9
R99L	96.1
V78K	-2.84
V76K	-21.8
A35C	65.6
F103I	11.6
V100E	-13.6
L164K	62.3
G108N	0.414
I162K	2.88
N85A	86.8
V161T	14.5

Series 4
Sequence: B1 (IAA3)
Technique: two-hybrid
Reference: out of 4 tests
Reading: higher = firmer interaction
B1: IAA3 (Arabidopsis thaliana, UniProt Q38822); chain MDEFVNLKETELRLGLPGTDNVCEAKERVSCCNNNNKRVLSTDTEKEIESSSRKTETSPPRKAQIVGWPPVRSYRKNNIQSKKNESEHEGQGIYVKVSMDGAPYLRKIDLSCYKGYSELLKALEVMFKFSVGEYFERDGYKGSDFVPTYEDKDGDWMLIGDVPWEMFICTCKRLRIMKGSEAKGLGCGV
partner	setting	positive tests
IAA33 (Arabidopsis thaliana, UniProt Q9FKM7)		1
ARF22 498-598 (Arabidopsis thaliana, UniProt Q9C8N7)		0
IAA11 (Arabidopsis thaliana, UniProt Q38829)	weak activation fusion	1
IAA31 (Arabidopsis thaliana, UniProt Q8H174)		3
ARF13 (Arabidopsis thaliana, UniProt Q9FX25)		0
IAA6 (Arabidopsis thaliana, UniProt Q38824)		0

Repeated from above (series 3):
Variant	relative binding score [%]
V100E	-13.6
E151S	82.6
G108N	0.414
A35C	65.6
E131C	85.6
A84D	2.98
